Published values pooled from the literature.
Every numbered part comes from another study and shows a few of its results, in no order.

Series 1
Molecule: PhoQ, residues 284 288 289 292 302 303 DDMDFR
Technique: Sort-seq
Measured: YFP reporter
Sample: E. coli
Setting: PhoQ-PhoP variant library
Added: 10 µM Mg2+
Reference: high Mg2+ state
Direction: higher = stronger signaling
Measurement: fold induction
target = PhoP, residues 12 14 15 18 19 NFFVT (Escherichia coli, UniProt P23836); value = 0.606
target = PhoP, residues 12 14 15 18 19 VGHWL (Escherichia coli, UniProt P23836); value = 0.633
target = PhoP, residues 12 14 15 18 19 TPWTL (Escherichia coli, UniProt P23836); value = 0.992
target = PhoP, residues 12 14 15 18 19 LHHYF (Escherichia coli, UniProt P23836); value = 0.845

Series 2
Target: Sal-like protein 4, full length isoform A (SALL4, Homo sapiens, UniProt Q9UJQ4, residues 1-1053)
UniProt Q9UJQ4, sequence (whole entry, looked up): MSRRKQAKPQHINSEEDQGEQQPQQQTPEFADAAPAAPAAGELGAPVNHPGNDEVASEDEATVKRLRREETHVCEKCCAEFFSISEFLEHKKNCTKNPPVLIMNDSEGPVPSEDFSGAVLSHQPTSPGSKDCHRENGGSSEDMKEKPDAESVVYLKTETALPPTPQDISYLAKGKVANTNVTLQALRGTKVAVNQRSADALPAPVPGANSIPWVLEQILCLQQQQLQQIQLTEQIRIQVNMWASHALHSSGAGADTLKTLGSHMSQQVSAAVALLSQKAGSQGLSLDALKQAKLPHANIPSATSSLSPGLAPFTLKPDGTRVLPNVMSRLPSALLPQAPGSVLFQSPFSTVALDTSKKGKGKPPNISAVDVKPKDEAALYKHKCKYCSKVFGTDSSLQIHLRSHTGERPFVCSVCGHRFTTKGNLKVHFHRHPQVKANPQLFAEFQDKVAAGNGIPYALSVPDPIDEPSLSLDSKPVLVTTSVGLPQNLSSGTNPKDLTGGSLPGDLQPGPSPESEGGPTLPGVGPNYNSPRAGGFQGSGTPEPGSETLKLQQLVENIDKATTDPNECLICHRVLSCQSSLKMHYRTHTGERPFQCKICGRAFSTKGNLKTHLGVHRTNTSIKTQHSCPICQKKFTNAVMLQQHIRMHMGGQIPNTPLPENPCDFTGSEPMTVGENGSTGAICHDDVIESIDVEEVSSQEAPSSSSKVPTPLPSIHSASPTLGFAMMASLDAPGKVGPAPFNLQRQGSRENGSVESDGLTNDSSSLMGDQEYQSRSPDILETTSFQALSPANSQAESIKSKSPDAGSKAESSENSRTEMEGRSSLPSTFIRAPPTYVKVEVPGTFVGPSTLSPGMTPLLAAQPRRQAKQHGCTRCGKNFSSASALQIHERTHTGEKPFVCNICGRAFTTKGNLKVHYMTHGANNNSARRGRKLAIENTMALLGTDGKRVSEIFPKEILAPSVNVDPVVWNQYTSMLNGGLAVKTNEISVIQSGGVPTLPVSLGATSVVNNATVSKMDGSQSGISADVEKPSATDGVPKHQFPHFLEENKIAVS
Technique: universal PBM
Form: double-stranded DNA, one strand shown
Sample: in vitro
Concentration: 600 nM
Setting: 8-mer, flanks averaged, mean of replicates
Direction: higher = stronger binding
Measurement: E-score
Oligonucleotide = ACAGGTAC; value = -0.0337
Oligonucleotide = AAGCCGGT; value = -0.152
Oligonucleotide = CTCCGCTA; value = -0.043
Oligonucleotide = AGCAATCG; value = 0.0138
Oligonucleotide = TATTAGGA; value = 0.318
Oligonucleotide = GGCGCTCA; value = -0.219
Oligonucleotide = ATTCGTTA; value = 0.209
Oligonucleotide = CGCTCATC; value = -0.0174
Oligonucleotide = AGTCGGGC; value = -0.327
Oligonucleotide = ACAGCTAA; value = 0.0653

Series 3
Target: Histone acetyltransferase KAT6A, winged helix 2, GST fusion (KAT6A, Homo sapiens, UniProt Q92794, residues 85-181)
Technique: protein binding microarray
Form: double-stranded DNA, one strand shown
Sample: in vitro
Concentration: not given
Setting: 8-mer, flanks averaged, mean of 2 arrays, mostly near background
Reference: not given
Direction: higher = stronger binding
Measurement: E-score
Target sequence (chain): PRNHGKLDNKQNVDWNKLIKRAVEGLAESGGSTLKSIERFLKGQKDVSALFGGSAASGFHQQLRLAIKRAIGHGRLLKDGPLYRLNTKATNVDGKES
Oligonucleotide = GCTAAAAA; value = 0.0332
Oligonucleotide = CCATAGGA; value = -0.027
Oligonucleotide = ATTTAGCA; value = 0.109
Oligonucleotide = AACCTCAT; value = 0.00257
Oligonucleotide = CGGTAACG; value = -0.0869
Oligonucleotide = CTGGCTTC; value = 0.104
Oligonucleotide = AGATTGGG; value = 0.0626
Oligonucleotide = ACCTTCGT; value = 0.0023
Oligonucleotide = GACAAATA; value = -0.124
Oligonucleotide = AGCGCACC; value = 0.039

Series 4
Target: RNA binding protein fox-1 homolog 2, RRM domain, GST-SBP tag (RBFOX2, Homo sapiens, UniProt O43251-10, residues 100-194)
Technique: RNA Bind-n-Seq
Form: RNA
Sample: in vitro
Concentration: 365 nM
Setting: natural RNA segment, single round, ends assumed
Reference: no-protein control
Direction: higher = stronger binding
Measurement: RBNS enrichment (R)
Shared flanks, not repeated: GGGAGUUCUACAGUCCGACGAUC … UGGAAUUCUCGGGUGCCAA
Construct (chain): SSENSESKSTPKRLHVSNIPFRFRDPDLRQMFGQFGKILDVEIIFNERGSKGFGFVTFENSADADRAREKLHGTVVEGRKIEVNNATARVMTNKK
Oligonucleotide = GGGAUUCAGUGUUGACUGUUCCCUGGUGUCCCCGCUGUCCUGUGUCGUCUGGUAUAGAAAGCGCAUGUUUCUGUAUCGGUGUCUGAUGAUAAGUUUCCUUGGAGUUUUAU; value = 31.9
Oligonucleotide = CCUUUGGUGUUAAGUGUCAUUGUUUAGUUUACCCUCUGUUCUCUAUGUUGUCCUAACAAGCCAACCCCAACCAACAAUUGUUAAGCUGCUCCUUAAAAAUGAAACAGGAG; value = 0.511
Oligonucleotide = ACACACUCGAUUAAAAAUGUUAAGCUAUCUGAAAAAUAAAAUGUGCAAGUCUUCAGGAUGGCACAAAACAAAGGUUAAUGCUUCUUGGGGCACAUUUCUUAGAGGGCUUG; value = 0.611
Oligonucleotide = UAUACUUUAUUUACCCAUGUGUAUAUUUUAUGAUCAUGAUCUAAGCUGUUAAUUCUUUCAUUCAUGUCCCUGCUGAGACACUGAUAUUAGCAACUUAGAGUUGGUGAGUU; value = 0.297
Oligonucleotide = AGCGCAUCAGCAAGCUUGAGAGGAACGUGGAAGAGCUUAAGCGUAAAGCUGCCCAGAACUCUGGGGAGGCAGAAUAUAUCGAAAAAGUAGUAUAUUCUGUAAAACAGAAU; value = 0.508
Oligonucleotide = UCUCCAAAUCAAACCACAGUAUAUGUUGUAACAAUAUCUAUGACCACUGUUAGCCCAUUAUAUUCAUUCCAAUUAGAAGAAAUGUGAAUACUAUAUUCCGUGUUUUGAGU; value = 0.542
Oligonucleotide = GGAGCUUGACUGUGGCUUCAGGUCCAGACCCUGAUCUCACUGGCAUCCCAAUACUGCAGGAGGGGUCUUCUCACAAAGCUCUGAGGGCUGGUCUUGACUAAGCAAUAAGA; value = 0.415
Oligonucleotide = GGAGCUGCUGUCAGUGCUGAGGGCGCCUGAGUGAACAGCUGCUGGGCUCAGCCCUCUAGAGCGCCUGUGGAGGCAGUUUCCAGGCAGUAAUGGAGUCCCCACCACCGCUU; value = 0.554
Oligonucleotide = GAUCCCAGGUGACUGGCUCUUGUGAAGAGUCUUAAGUGUCCUGUGGUACCGUAGAGUGGAAAUGAUCUUCAAUAAUAACAGUAGUGACUUUUGGAUGCUUUGUUGCUGGU; value = 0.511
Oligonucleotide = UUAUAAAAUGCUAGUAAUUUAGAACCCUCCCCCCAAAUCAAGGAGGCAAAAAAUAACGCACUAGUCACUGAAGUUCAUCCUCAGUUACCUCGAUAGGGUAGGUAGAUUCC; value = 0.27
Oligonucleotide = GCAAGGAUUAGCCAAAUCUUCUUAUUGAAGAAAGAAGAAAAGUGAAGAGUGGUUACCUAUACCUAGCAUAGUACAAUCAGAACCUCGUGGAGACCACCGGGGACAGGCUU; value = 0.603

A few entries again (series 2):
Oligonucleotide = GGCGCTCA; value = -0.219
Oligonucleotide = AAGCCGGT; value = -0.152
Oligonucleotide = AGTCGGGC; value = -0.327
Oligonucleotide = AGCAATCG; value = 0.0138
Oligonucleotide = CTCCGCTA; value = -0.043
